Experimental data pooled from the literature.
± gives the spread as reported.
CTSL: Procathepsin L (CTSL, Homo sapiens, UniProt P07711)
MMP1: Interstitial collagenase (MMP1, Homo sapiens, UniProt P03956)

O=C1c2ccccc2[Se](=O)N1c1ccccc1 (stereo not drawn)  IC50 (HDAC5 (Homo sapiens, UniProt Q9UQL6); enzyme activity, inhibitor, fluorescence): 1490 nM
N#Cc1cn([C@@H]2O[C@H](CSCC[C@H](N)C(=O)O)[C@@H](O)[C@H]2O)c2ncnc(N)c12  IC50 (PRMT6 (Homo sapiens, UniProt Q96LA8); enzyme activity, inhibitor, radiometric): 1000 nM
COC(=O)C=CCCC(NC(=O)c1ccncc1C(=O)O)C(=O)NC(C(=O)N1CC(=O)CC1C(=O)NC(C(=O)NC(C(N)=O)C1CCCCC1)C1CCCCC1)C(C)(C)C (stereo not drawn)  IC50 (Protein-glutamine gamma-glutamyltransferase 6 (Homo sapiens, UniProt O95932); enzyme activity, inhibitor): 17 nM
CC[C@@H]1C(=O)N(C)c2cnc(Nc3ccc(C(=O)NCCCC[C@H](NC(=O)COCCOCCNC(=O)COCCOCCNC(=O)COCCOCCNC(=O)COCCOCCNC(=O)[C@@H](NC(=O)[C@H](CO)NC(=O)[C@H](Cc4cncn4CCCCCCCCc4ccccc4)NC(=O)[C@H](CC(C)C)NC(=O)[C@@H]4CCCN4C(C)=O)[C@@H](C)OP(=O)(O)O)C(N)=O)cc3OC)nc2N1C1CCCC1  IC50 (PLK3 (Homo sapiens, UniProt Q9H4B4); enzyme activity, inhibitor): 7.2 nM
CSCCNC(=O)CCC(C)C1CCC2C3C(O)CC4CC(O)CCC4(C)C3CCC12C (stereo not drawn)  IC50 (Bile acid receptor (NR1H4, Homo sapiens, UniProt Q96RI1); protein-protein interaction, antagonist; CHO-K1; added: GW4064 0.37 µM): 1680 nM
COc1c(OCCOCCOCCOCCOCCOCCOCCOc2cccc(C(=O)C3CCN(CCc4ccc(F)cc4)CC3)c2OC)cccc1C(=O)C1CCN(CCc2ccc(F)cc2)CC1  IC50 (HTR2A (Homo sapiens, UniProt P28223); phosphorylation in cells, antagonist): 284 nM
CC1C(=NOCc2cc(-c3ccc(Cl)cc3)no2)C(C)C(c2ccc(Cl)cc2)OC1c1ccc(Cl)cc1 (stereo not drawn)  IC50 (DNA gyrase (gyrA/gyrB, Escherichia coli, UniProt P0AES4+P0AES6)): 10900 nM
C[C@@H](O)[C@@H]1NC(=O)[C@H](CC(=O)O)NC(=O)CNC(=O)[C@H](CCC(N)=O)NC(=O)[C@@H]2CCCN2C(=O)[C@H](Cc2cnc[nH]2)NC(=O)[C@@H](N)CSSC[C@@H](C(=O)NCC(N)=O)NC1=O  IC50 (Streptavidin (Streptomyces avidinii, UniProt P22629)): 25600 nM
CN(CC(N)=O)C(=O)c1cc(Cl)sc1Cl  IC50 (Urease (Canavalia ensiformis, UniProt P07374); enzyme activity, inhibitor, absorbance): 680 nM
CN(C)c1ccc(NC(=O)CCCCCNC(=O)CS)cc1  IC50 (HDAC10 (Homo sapiens, UniProt Q969S8); enzyme activity, inhibitor): 17700 nM
CC(=O)N[C@@H](CC(C)C)C(=O)N[C@@H](CCC(=O)O)C(=O)N[C@@H](CO)C(=O)N[C@@H](CC(=O)O)C(=O)CCl  IC50 (Caspase-10 (CASP10, Homo sapiens, UniProt Q92851); enzyme activity, inhibitor, fluorescence): 520 nM
COC(=O)c1ccc2c(c1)NC(=O)/C2=C(\Nc1ccc(N(C)C(=O)CN2CCN(CCOCCOCCNC(=O)c3cc(OCc4cn(CCCCN5C[C@@H]6C[C@H]5C(=O)N[C@@H](CC(C)C)C(=O)N[C@@H](CCCNC(=N)N)C(=O)NCC(=O)N[C@@H](CC(=O)O)C(=O)N[C@@H](CC(C)C)C(=O)N6)nn4)cc(OCc4cn(CCCCN5C[C@@H]6C[C@H]5C(=O)N[C@@H](CC(C)C)C(=O)N[C@@H](CCCNC(=N)N)C(=O)NCC(=O)N[C@@H](CC(=O)O)C(=O)N[C@@H](CC(C)C)C(=O)N6)nn4)c3)CC2)cc1)c1ccccc1  IC50 (KDR (Homo sapiens, UniProt P35968); enzyme activity, inhibitor, radiometric): 35 nM
CCCCCc1cc(O)c2c(c1)OC(C)(C)C1CCC(C(=O)OC3OC(C(=O)O)C(O)C(O)C3O)=CC21 (stereo not drawn)  IC50 (Cytochrome P450 2B6 (CYP2B6, Homo sapiens, UniProt P20813); enzyme activity, inhibitor; human, liver microsomes; pH 7.4): 5300 nM
C[C@@H]1C(=O)C=C2[C@H]1CN(C)C[C@@H]2C  IC50 (MAL12 (Saccharomyces cerevisiae S288c, UniProt P53341); enzyme activity, inhibitor): 143000 nM
CSCCC(C=O)NC(=O)C(CC(C)C)NC(=O)C(CC(C)C)NC(C)=O (stereo not drawn)  IC50 (CTSL; enzyme activity, inhibitor; pH 5.5): 0.41 nM
CC(C)[C@H](NC(=O)c1ccc(CNc2nc3c(c(=O)[nH]2)CCC3)cc1)C(=O)NC1CNC1  IC50 (MMP1; enzyme activity, inhibitor): > 5000 nM
O=C1C(O)=C(Nc2ccc(F)cc2)C(=O)c2ccccc21  IC50 (DHODH (Homo sapiens, UniProt Q02127); enzyme activity, inhibitor, absorbance): 470 nM
CC(C)C[C@@H]1NC(=O)[C@H](C(C)C)NC(=O)[C@H](C)NC(=O)[C@H](Cc2ccc(O)cc2)NC(=O)[C@H](CCC(N)=O)NC(=O)[C@H](CC(C)C)NC(=O)[C@@H](Cc2ccc(O)cc2)NC(=O)CSC[C@@H](C(N)=O)NC(=O)[C@H](CCC(=O)O)NC(=O)[C@H](CCCNC(=N)N)NC(=O)[C@H](CCCNC(=N)N)NC(=O)[C@H](CCCCN)NC(=O)[C@H](Cc2c[nH]cn2)NC(=O)[C@H](CCCNC(=N)N)NC1=O  IC50 (Furin (FURIN, Homo sapiens, UniProt P09958); enzyme activity, inhibitor): > 10000 nM
Nc1nc2c(c(=O)[nH]1)[n+](Cc1cccc(OS(=O)(=O)F)c1)cn2[C@@H]1O[C@H](COP(=O)(O)O)[C@@H](O)[C@H]1O  IC50 (NT5C3B (Homo sapiens, UniProt Q969T7); enzyme activity, inhibitor, absorbance; pH 7.5): 1600 nM
O=C(NC12CC3CC(CC(C3)C1)C2)c1cc2cc(Cl)ccc2[nH]1  IC50 (Cytochrome P450 2D6 (CYP2D6, Homo sapiens, UniProt P10635); inhibitor): > 50000 nM
O=C(CCCCCCC(=O)Nc1cccc(N=Nc2ccccc2)c1)NO  IC50 (HDAC1 (Homo sapiens, UniProt Q13547); enzyme activity, inhibitor; trans isomer): 14 ± 6 nM
CCOC(=O)CC(NC(=O)Nc1ccc(NC(=O)NC(CC(=O)OCC)C2OC3OC(C)(C)OC3C2OCc2ccccc2)cc1)C1OC2OC(C)(C)OC2C1OCc1ccccc1 (stereo not drawn)  IC50 (DNA ligase 1 (Homo sapiens, UniProt P18858); enzyme activity, inhibitor, radiometric): 94000 nM
CC(C)C[C@H](NC(=O)[C@H](CC(C)C)NC(=O)[C@H](Cc1c[nH]cn1)NC(=O)CNC(=O)[C@@H](NC(=O)[C@H](C)NC(=O)[C@H](Cc1c[nH]c2ccccc12)NC(=O)[C@H](CCC(N)=O)NC(=O)[C@H](CC(N)=O)NC(=O)CNC(=O)[C@H](CC(C)C)NC(=O)[C@H](CCCNC(=N)N)NC(=O)[C@H](CCC(N)=O)NC(=O)[C@@H]1CCC(=O)N1)C(C)C)C(N)=O  IC50 (NMBR (Homo sapiens, UniProt P28336); NMBR activity, cell-based): 45 to 295 nM
CCc1n[nH]c(NC(=O)c2ccc3c(c2)nnn3C)n1  IC50 (CTSL; enzyme activity, inhibitor, FRET): > 100000 nM
CC(C)[C@H](NC(=O)c1ccc(CCc2nc3c(c(=O)[nH]2)CCC3)cc1)C(=O)NC1CNC1  IC50 (MMP1; enzyme activity, inhibitor): > 5000 nM
CC(C)C[C@H](NC(=O)[C@H](Cc1ccc(O)cc1)NC(=O)[C@H](CO)NC(=O)[C@@H](N)CCC(N)=O)C(=O)N[C@@H](C)C(=O)N[C@H](C(=O)N1CCC[C@H]1C(=O)N[C@H](C(=O)N[C@@H](CO)C(=O)N[C@@H](Cc1ccc(O)cc1)C(=O)N[C@@H](Cc1c[nH]cn1)C(=O)N[C@@H](CC(C)C)C(=O)N[C@@H](CCC(N)=O)C(=O)N[C@@H](CCC(N)=O)C(=O)N[C@@H](CO)C(=O)O)[C@@H](C)O)C(C)C  IC50 (Ppp3r1/Ppp3ca (Rattus norvegicus, UniProt P63100+P63329); phosphatase activity, inhibitor; 30 min, 37 °C, added: RII phosphopeptide): 190000 nM
CSCC[C@H](N)C(=O)N[C@@H](CC(C)C)C(=O)N[C@@H](Cc1ccccc1)C(=O)N[C@@H](CO)C(=O)NCC(=O)N[C@@H](CCC(N)=O)C(=O)N[C@H](C(=O)N[C@@H](CC(C)C)C(=O)O)C(C)C  IC50 (ACE (Homo sapiens, UniProt P12821); enzyme activity, inhibitor, HPLC): 603000 nM
CCCN1CCc2cccc3c2[C@H]1Cc1ccc(O)c(O)c1-3  IC50 (Carbamate kinase (Giardia intestinalis, UniProt A8BB85); enzyme activity, ATP luminescence): 10300 nM
F[P-](F)(F)(F)(F)F.OCP(CO)CO.OCP(CO)CO.OCP(CO)CO.OCP(CO)CO.[Cu+]  IC50 (PSMB6/PSMB5/PSMB7 (Homo sapiens, UniProt P28072+P28074+Q99436); caspase-like activity; 26S proteasome from LoVo cells): 21000 nM
CN(C)S(=O)(=O)c1cc(O)c(O)c2c1CN(Cc1ccc(F)c(Cl)c1)C2=O  IC50 (Gag-Pol polyprotein, integrase (gag-pol, Human immunodeficiency virus 1, UniProt P12497); 3'-processing, inhibitor, gel-based; recombinant wild-type integrase): 8600 ± 600 nM
